Experimental data pooled from the literature.
Every numbered part comes from another study and shows a few of its results, in no order.

Study 1
Target: Sal-like protein 4, full length isoform B (SALL4, Homo sapiens, UniProt Q9UJQ4-2, residues 1-616)
Technique: universal PBM
Molecule type: double-stranded DNA, one strand shown
Medium: in vitro
Tested at: not given
Notes: 8-mer, flanks averaged, mean of replicates
Reading: higher = stronger binding
Target sequence (chain): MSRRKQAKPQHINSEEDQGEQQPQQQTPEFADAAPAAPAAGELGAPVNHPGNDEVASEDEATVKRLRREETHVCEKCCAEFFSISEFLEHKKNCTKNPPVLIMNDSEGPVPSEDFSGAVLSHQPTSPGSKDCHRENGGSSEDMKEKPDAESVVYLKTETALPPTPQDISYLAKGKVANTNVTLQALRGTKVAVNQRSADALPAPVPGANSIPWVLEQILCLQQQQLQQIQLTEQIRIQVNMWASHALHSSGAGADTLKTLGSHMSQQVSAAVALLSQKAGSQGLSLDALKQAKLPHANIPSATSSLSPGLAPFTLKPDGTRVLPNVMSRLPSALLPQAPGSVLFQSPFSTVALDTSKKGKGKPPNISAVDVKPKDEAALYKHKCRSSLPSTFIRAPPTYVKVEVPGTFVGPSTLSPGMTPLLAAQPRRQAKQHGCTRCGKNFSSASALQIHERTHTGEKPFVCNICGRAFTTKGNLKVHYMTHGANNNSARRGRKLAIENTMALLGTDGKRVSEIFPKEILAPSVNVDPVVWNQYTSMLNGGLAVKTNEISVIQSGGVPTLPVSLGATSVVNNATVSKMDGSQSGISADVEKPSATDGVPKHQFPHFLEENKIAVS
Strand | E-score
TAAGTTGA | 0.166
ACGATGAC | -0.0763
AAAAGTCT | 0.0828
AGGACTGG | -0.105

Study 2
Target: Histone acetyltransferase KAT6A, winged helix 1, GST fusion (KAT6A, Homo sapiens, UniProt Q92794, residues 1-85)
Technique: protein binding microarray
Molecule type: double-stranded DNA, one strand shown
Medium: in vitro
Tested at: not given
Notes: 8-mer, flanks averaged, mean of 2 arrays, mostly near background
Baseline: not given
Reading: higher = stronger binding
Residues (chain): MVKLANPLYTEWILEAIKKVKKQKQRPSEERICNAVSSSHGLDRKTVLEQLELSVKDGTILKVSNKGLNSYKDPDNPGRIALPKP
Strand | E-score
ATAATTGA | -0.016
CCTGTCCC | -0.105
CAGATCCC | 0.0357
ACCTATCT | -0.121

Study 3
Target: POU, POU domain (Salpingoeca helianthica)
Technique: Spec-seq
Molecule type: double-stranded DNA, one strand shown
Medium: in vitro
Tested at: not given
Notes: whole probe, mean of replicates
Baseline: not given
Reading: lower = stronger binding
Target sequence (chain): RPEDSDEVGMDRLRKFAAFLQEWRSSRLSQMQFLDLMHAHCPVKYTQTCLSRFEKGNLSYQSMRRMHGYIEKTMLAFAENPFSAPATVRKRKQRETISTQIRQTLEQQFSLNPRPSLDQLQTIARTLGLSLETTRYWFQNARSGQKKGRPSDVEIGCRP
Strand | relative binding energy [ln ratio]
GAGTCGTCTCGTCAGCACATTACCATCCGTAGAGCACTCAGGTC | 0.693
GAGTCGTCTCGTCAGCACCGCGTAATCCGTAGAGCACTCAGGTC | 0.641
GAGTCGTCTCGTCAGCACATTACGATCCGTAGAGCACTCAGGTC | 0.66

Single results of other studies
Molecule | target | test | system | setting | scale | endpoint | value
PhoQ, residues 284 288 289 292 302 303 NLMGRA | PhoP, residues 12 14 15 18 19 FWNTL (Escherichia coli, UniProt P23836) | Sort-seq, measured: YFP reporter | E. coli | PhoQ-PhoP variant library, added: 10 µM Mg2+ | baseline: high Mg2+ state, higher = stronger signaling | fold induction | 19.9

Some of these lines once more (single results of other studies):
Molecule | target | test | system | setting | scale | endpoint | value
PhoQ, residues 284 288 289 292 302 303 NLMGRA | PhoP, residues 12 14 15 18 19 FWNTL (Escherichia coli, UniProt P23836) | Sort-seq, measured: YFP reporter | E. coli | PhoQ-PhoP variant library, added: 10 µM Mg2+ | baseline: high Mg2+ state, higher = stronger signaling | fold induction | 19.9
